# Experimental data from different studies.
# A part holds a random share of what one study measured. Positions count from the first letter of the parent shown.

# Block 1
# Target: Sal-like protein 4, full length isoform A (SALL4, Homo sapiens, UniProt Q9UJQ4, residues 1-1053)
# Sequence of UniProt Q9UJQ4 (whole entry, looked up): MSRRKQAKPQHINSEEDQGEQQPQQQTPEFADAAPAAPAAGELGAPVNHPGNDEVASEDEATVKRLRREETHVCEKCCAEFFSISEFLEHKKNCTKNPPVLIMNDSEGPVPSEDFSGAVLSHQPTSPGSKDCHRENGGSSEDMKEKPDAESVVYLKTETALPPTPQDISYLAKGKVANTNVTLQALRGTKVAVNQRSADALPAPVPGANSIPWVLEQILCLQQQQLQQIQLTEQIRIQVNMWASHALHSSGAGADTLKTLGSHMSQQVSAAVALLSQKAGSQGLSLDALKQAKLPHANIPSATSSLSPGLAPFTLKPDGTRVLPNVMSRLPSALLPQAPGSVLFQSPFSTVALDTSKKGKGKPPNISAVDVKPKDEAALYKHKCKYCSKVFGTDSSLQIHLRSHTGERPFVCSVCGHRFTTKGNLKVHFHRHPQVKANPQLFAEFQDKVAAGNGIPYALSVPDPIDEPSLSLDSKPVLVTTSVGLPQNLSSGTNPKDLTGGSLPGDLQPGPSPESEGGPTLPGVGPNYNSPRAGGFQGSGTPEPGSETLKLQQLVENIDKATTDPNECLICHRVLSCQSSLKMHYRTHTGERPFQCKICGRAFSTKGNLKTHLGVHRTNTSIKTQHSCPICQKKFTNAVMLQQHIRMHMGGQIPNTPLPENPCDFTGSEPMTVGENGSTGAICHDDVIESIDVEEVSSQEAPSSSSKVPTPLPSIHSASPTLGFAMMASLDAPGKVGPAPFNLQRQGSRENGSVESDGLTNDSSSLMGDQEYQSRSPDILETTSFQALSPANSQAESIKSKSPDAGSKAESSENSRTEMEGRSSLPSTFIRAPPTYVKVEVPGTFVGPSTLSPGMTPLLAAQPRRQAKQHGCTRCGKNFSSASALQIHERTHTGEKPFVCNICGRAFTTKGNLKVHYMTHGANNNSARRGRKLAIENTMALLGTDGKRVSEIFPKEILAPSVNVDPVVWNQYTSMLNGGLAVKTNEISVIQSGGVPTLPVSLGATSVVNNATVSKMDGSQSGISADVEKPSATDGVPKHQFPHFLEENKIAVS
# Technique: universal PBM
# Molecule type: double-stranded DNA, one strand shown
# Sample: in vitro
# Concentration: 600 nM
# Notes: 8-mer, flanks averaged, mean of replicates
# Direction: higher = stronger binding
Oligonucleotide,E-score
GGAGATCC,-0.272
AGAGGTAC,-0.232
GGCTATAA,0.244
AATACGCA,0.121
TGAGTGAA,0.0874
CACCCTGC,-0.23
TACCAACA,0.0912
CAGTAAGC,-0.0908
CGCTCCAA,-0.162
ATACCGAG,0.0545
AGGCTTTC,0.0354
ATACAACC,0.0943
CTAATGTA,0.21
AGGTTAAT,0.197
AGACCGGA,-0.233
ATACTACG,0.115
GATCAACC,-0.19
CTCTGCCC,-0.123
CATTTTTC,0.327
TCGGGCAA,-0.102
CCGGACCG,-0.401
ATAGGCTG,0.00854
AATTCTAG,0.219

# Block 2
# Target: Histone acetyltransferase KAT6A, winged helix 2, GST fusion (KAT6A, Homo sapiens, UniProt Q92794, residues 85-181)
# Technique: protein binding microarray
# Molecule type: double-stranded DNA, one strand shown
# Sample: in vitro
# Concentration: not given
# Notes: 8-mer, flanks averaged, mean of 2 arrays, mostly near background
# Reference: not given
# Direction: higher = stronger binding
# Target sequence (chain): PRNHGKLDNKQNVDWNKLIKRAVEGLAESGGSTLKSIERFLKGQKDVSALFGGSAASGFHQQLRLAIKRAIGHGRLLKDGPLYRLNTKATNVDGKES
Oligonucleotide,E-score
CGACATAG,-0.103
GCGGGCCA,0.101
GGTATAAC,-0.145
GAACCGGA,0.0769
ACTTGGTG,-0.163
AGGAATCA,0.0592
GTCGAATA,-0.0485
GACGGTCC,0.102
GAGATACC,0.0105
TATGACGA,-0.0858
TGCCGGCA,0.183
AGTTGGGC,0.13
ACAAGCTG,0.131
CGGCAAAG,-0.00738
AGGCGGGA,0.158
ACCCATAC,-0.0891
AGTCCACT,-0.114
GAGCCGTA,0.205
CCACACAG,-0.000485
ACGGCCTA,0.0404
ACTATCCG,0.0912
TCGTCGAA,-0.0773
GATTTATA,0.193
ACATCAGT,-0.172

# Block 3
# Target: ABI1, truncated, D143A, DHFR fusion (Arabidopsis thaliana)
# Technique: DHFR PCA, deep sequencing
# Sample: yeast
# Notes: methotrexate growth selection, single substitutions
# Together with: (+)-ABA 1.4 µM
# Reference: wild-type fitted maximum
# Direction: higher = stronger binding
# Starting sequence: PYL1, truncated, DHFR fusion (Arabidopsis thaliana); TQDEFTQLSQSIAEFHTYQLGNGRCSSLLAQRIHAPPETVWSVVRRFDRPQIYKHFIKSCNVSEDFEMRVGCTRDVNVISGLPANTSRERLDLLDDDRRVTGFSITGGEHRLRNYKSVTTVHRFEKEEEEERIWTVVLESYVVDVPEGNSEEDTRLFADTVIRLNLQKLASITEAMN; partner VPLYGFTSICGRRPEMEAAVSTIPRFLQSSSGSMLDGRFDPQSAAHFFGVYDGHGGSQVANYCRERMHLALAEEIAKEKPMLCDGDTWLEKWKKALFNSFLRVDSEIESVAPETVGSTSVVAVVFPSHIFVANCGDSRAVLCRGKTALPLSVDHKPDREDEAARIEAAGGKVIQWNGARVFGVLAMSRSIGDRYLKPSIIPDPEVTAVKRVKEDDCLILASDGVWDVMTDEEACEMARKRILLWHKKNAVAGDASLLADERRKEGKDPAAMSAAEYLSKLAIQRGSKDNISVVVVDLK
Variant,relative binding score [%]
R74V,-5.17
N77Y,62.7
V44T,-10.7
N114I,4.74
N114Q,6.4
E67M,31.1
E147S,34.2
T154Y,-35
T120M,3.93
V100P,-7.44
L91H,1.49
L112H,-21.9
N61R,71.4
M176S,34.4
V161R,4.13
F66I,15.2
N77C,65.8
T119Q,16.3
N149E,21.5
V78P,-2.88
L20C,68.9
P83I,0.654
I57T,-11.1
V145L,-10

# Block 4
# Target: Ras GTPase-activating protein-binding protein 1, full length (G3BP1, Homo sapiens, UniProt Q13283)
# Sequence of UniProt Q13283 (whole entry, looked up): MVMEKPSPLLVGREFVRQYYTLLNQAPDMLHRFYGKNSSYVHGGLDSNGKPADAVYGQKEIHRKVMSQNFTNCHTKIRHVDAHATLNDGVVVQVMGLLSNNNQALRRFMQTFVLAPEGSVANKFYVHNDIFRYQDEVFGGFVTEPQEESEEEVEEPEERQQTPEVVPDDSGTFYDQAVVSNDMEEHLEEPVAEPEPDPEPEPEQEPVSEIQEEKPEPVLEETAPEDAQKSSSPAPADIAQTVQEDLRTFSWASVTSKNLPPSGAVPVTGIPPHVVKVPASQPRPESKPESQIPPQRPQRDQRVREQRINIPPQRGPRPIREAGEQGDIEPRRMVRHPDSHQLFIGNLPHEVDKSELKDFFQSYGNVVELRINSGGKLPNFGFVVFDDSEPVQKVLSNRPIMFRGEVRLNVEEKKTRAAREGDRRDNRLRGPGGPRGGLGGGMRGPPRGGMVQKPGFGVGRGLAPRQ
# Technique: RNA Bind-n-Seq
# Molecule type: RNA
# Sample: in vitro
# Concentration: 200 nM
# Notes: whole 134-nt RNA, ends assumed
# Together with: 150 mM KCl
# Reference: input library
# Direction: higher = stronger binding
Oligonucleotide,log2 enrichment
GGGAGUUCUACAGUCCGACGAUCUUGUGAGAGCCACAGGAAAAGCAAGAAGGAGAAGAAGAAAAAGAAAAAGAGGAAACACAAGAAAGAGAAGAAGAAGAAAGACAAAGAGCAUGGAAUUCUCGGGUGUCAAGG,0.191
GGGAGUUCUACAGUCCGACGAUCUCCUGUGCUACACAUCGUAUGUACCGAAUCAAAUUUUUUUAAAUUUUUAAACCCCCAAAAAAGUAUUAUGUUACGCCGUUCGGAUCUGCAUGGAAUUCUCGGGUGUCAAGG,0.0795
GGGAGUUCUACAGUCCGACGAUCACCAUGCAGGUGGGCAUCUUUGGGAAGUGGGGCAAGGGGGGGAUAGGAAAGGGGGUAACACUUUGGGAACAGGUGGUCCCAGGUCGUUUCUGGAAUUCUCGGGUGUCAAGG,0.99
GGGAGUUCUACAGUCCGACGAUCUGUGCUACACAUCGUAUGUACCGAAUCGGGCCCCCCCGGGCCCCCCCGGGGCCCCCCCGGGGAAAGUAUUAUGUUACGCCGUUCGGAUCUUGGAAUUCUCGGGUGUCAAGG,-1.8
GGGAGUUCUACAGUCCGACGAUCGCAGGAAGUAAAAACAAAUGGAAAUGCUUCGGAUAGUGGCAGGGGUGGGGGUUGCUAAGGAAAGGGAGGGAUGGGAGUGGGUAAAGAGUUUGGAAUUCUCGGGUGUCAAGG,0.972
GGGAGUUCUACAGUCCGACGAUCUAACUUUAGAGGAGGAUCUGUUGGAUAUGGCAGUGGACGUGGAUUUGGGGAUGGCUAUAAUGGGUAUGGAGGAGGACCUGGAGGUGGCAAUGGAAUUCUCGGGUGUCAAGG,0.532
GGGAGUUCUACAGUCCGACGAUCUCCUGUGCUACACAUCGUAUGUACCGAAUCGGGGUUUUUGGGGAGGGGUUUUUUUGGGGAAAGUAUUAUGUUACGCCGUUCGGAUCUGCAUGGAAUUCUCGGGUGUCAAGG,0.604
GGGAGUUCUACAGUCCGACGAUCGUCCUGUGCUACACAUCGUAUGUACCGAAUCAAACCCAAAUUUUUUUAAAUUUUUAAAAAAGUAUUAUGUUACGCCGUUCGGAUCUGCACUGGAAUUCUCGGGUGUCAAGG,-0.511
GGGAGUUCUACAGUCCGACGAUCUCCUCAAGUCCUGUGCUACACAUCGUAUGUACCGAAUCGGAGGUUUGGAGGAAAGUAUUAUGUUACGCCGUUCGGAUCUGCACUUCCAGCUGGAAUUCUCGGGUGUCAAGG,-0.704
